Assay results pooled from the literature.
Each numbered part is a random draw from the data of one study; scales do not carry over between parts.
UniProt P28223, sequence (whole entry, looked up): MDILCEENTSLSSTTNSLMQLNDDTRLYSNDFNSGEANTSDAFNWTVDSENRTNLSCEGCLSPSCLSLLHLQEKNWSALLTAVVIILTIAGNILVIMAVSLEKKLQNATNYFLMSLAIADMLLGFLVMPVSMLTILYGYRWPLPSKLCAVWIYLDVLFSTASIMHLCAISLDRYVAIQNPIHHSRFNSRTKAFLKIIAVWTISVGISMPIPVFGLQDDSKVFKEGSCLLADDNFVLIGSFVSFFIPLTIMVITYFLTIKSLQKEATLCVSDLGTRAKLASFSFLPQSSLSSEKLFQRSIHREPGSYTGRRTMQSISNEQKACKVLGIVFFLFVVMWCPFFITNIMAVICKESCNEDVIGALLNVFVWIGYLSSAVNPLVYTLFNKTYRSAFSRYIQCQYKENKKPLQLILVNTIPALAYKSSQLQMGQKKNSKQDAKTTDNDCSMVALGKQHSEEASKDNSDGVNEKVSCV

Study 1
Cell line: HH
Concentration: 2 µM
Time: 48 h
Relative to: untreated
The viability of `Cc1cc(C)c(/C=C2\C(=O)Nc3ccccc32)[nH]1` is reported as 98.2%.
`Oc1ccc(Nc2nc(-c3ccc(Cl)cc3)cs2)cc1` has a viability of 80.8%.
For `CS(=O)(=O)c1cccc(CNc2nc(Nc3ccc4c(c3)CCC(=O)N4)ncc2C(F)(F)F)c1`, the viability was 102%.
`Cc1cnc(-c2cnc(NCCNc3ccc(C#N)cn3)nc2-c2ccc(Cl)cc2Cl)[nH]1` has a viability of 105%.
For `CCCCCCCCCCCCCCCc1cccc(O)c1C(=O)O`, the viability was 104%.
`COc1c(C)c(C(=O)c2ccc(N)c(C(=O)O)c2)n2ccccc12` has a viability of 86.2%.
With `CCn1c(N)c(C(=O)NC)c(=O)c2ccc(C#C[C@@](C)(O)COC)nc21` the viability was 95.9%.
With `O=C(NCc1cccc(O)c1)Nc1nc(-c2ccncc2)cs1` the viability was 30.4%.

Study 2
Target: Calcium/calmodulin-dependent protein kinase type II subunit alpha (CAMK2A, Homo sapiens, UniProt Q9UQM7)
UniProt Q9UQM7, sequence (whole entry, looked up): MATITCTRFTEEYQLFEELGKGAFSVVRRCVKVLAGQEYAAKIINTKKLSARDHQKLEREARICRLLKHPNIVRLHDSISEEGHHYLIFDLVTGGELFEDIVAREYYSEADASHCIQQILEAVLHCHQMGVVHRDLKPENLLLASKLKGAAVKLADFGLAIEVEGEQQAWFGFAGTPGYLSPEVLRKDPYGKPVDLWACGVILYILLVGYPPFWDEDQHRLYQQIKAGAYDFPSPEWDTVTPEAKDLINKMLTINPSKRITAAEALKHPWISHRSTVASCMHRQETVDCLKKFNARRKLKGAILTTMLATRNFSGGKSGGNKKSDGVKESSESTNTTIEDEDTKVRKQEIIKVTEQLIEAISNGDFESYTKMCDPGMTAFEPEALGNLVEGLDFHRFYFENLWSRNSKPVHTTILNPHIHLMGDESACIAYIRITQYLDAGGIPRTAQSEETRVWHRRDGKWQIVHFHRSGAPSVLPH
Observed: enzyme activity
Action: inhibitor
Concentration: 10 µM
The inhibition of `O=C(CCCCCCCCc1ccc(O)c(O)c1)c1c(O)cccc1O` is reported as -42%.
`CCOC(=O)c1cc(O)c(O)c(O)c1` has an inhibition of -10%.
The inhibition of `Cc1ncc([N+](=O)[O-])n1C` is reported as 1%.
`O=C1c2ccccc2-n2c1nc1ccccc1c2=O` has an inhibition of -26%.
With `O=C(O[C@@H]1O[C@@H]2COC(=O)c3cc(O)c(O)c(O)c3-c3c(cc(O)c(O)c3O)C(=O)O[C@H]([C@H]1O)[C@@H]2O)c1cc(O)c(O)c(O)c1` the inhibition was -5%.
`CN(C)CCC(c1ccc(Br)cc1)c1ccccn1` (stereo not drawn) gave an inhibition of -1%.
`CCC/C=C1/OC(=O)c2ccccc21` has an inhibition of -13%.
`Nc1nc(=O)c2[nH]c(=O)cnc2[nH]1` has an inhibition of 19%.

Other studies, line by line
`CN1CCN(C(=O)C(C)(C)c2ccc(C(=O)Nc3cn4cc(-c5cc(C(C)(C)C)cc(C(C)(C)C)c5)ccc4n3)cc2)CC1` gave an inhibition of 92.3% (HTR2A (Homo sapiens, UniProt P28223); ligand displacement; 10 µM).
With `COc1ccc(-c2c(Nc3ccccn3)[nH]c3c(C4=CCCCC4)c(-c4ccccc4)nn3c2=O)cc1` the AUC(0-inf) observed was 2260 µg·h/mL (LC-MS/MS non-compartmental; human, plasma; oral, 200 mg twice daily, cycle 1).

Repeated from above (study 2):
`Nc1nc(=O)c2[nH]c(=O)cnc2[nH]1` has an inhibition of 19%.
The inhibition of `O=C(CCCCCCCCc1ccc(O)c(O)c1)c1c(O)cccc1O` is reported as -42%.
`CN(C)CCC(c1ccc(Br)cc1)c1ccccn1` (stereo not drawn) gave an inhibition of -1%.
